Published values pooled from the literature.
Lines come from different studies, so protocols differ. ± marks the error that the study gave.

SMILES	test	system	setting	scale	measurement	result
CCN(CC)C(=O)[C@@H]1C=C2c3cccc4[nH]cc(c34)C[C@H]2N(C)C1	refers to: hot flashes	healthy volunteers	dose not given, 12 to 24 h	reference: placebo, direction not given	List of Complaints score	0
CCCCCCCCCCC(=O)O[C@H]1CC[C@H]2[C@H]3[C@H]([C@@H](C)C[C@]12C)[C@H]1CCC(=O)C=C1C[C@H]3C		human serum	300 ng/mL, NaF 100 mg/mL		DMA level	not detected
COc1cccc(C2(O)CCCCC2CN(C)C)c1 (centres unmarked)	joint PK model	human, whole blood	oral, dose not given, one-compartment metabolite model		peripheral volume	0.471 L
C#Cc1ccc2c(c1)C(c1ccccn1)=NCc1c(-c3cnco3)ncn1-2.Cl		DMSO	24 h, 25 °C, thermodynamic equilibrium		solubility	4420 µg/mL
COc1cc2c(Oc3ccc4[nH]c(C)cc4c3F)ccnc2cc1OCC1(N)CC1		paediatric refractory sarcoma patients	12 mg		influenza-like illness incidence	9.1%
O=C1c2c(O)c(=O)ccn2N([C@@H]2c3ccccc3SCc3c2ccc(F)c3F)[C@@H]2COCCN12		BALB/c mice, plasma	oral, 1.5 mg/kg baloxavir marboxil, 4 h		plasma concentration	5.72 ng/mL
CN/C(=N\[N+](=O)[O-])NCc1cnc(Cl)s1		soil	28 days, nominal 0.37		concentration	0.17 mg/kg dry soil
Cc1ncc2n1-c1ccc(Cl)cc1C(c1ccccc1F)=NC2		wild-type mice, plasma	intravenous, 0.3 mg/kg, CMC pretreatment 14 days		MRT	15.3 ± 2.5 min

Excerpt of the above:
SMILES	test	system	setting	scale	measurement	result
CCCCCCCCCCC(=O)O[C@H]1CC[C@H]2[C@H]3[C@H]([C@@H](C)C[C@]12C)[C@H]1CCC(=O)C=C1C[C@H]3C		human serum	300 ng/mL, NaF 100 mg/mL		DMA level	not detected
